# Measurements collected from several papers.
# Parts stem from different laboratories: compare values within a part only.
# UniProt Q86Y07, sequence (whole entry, looked up): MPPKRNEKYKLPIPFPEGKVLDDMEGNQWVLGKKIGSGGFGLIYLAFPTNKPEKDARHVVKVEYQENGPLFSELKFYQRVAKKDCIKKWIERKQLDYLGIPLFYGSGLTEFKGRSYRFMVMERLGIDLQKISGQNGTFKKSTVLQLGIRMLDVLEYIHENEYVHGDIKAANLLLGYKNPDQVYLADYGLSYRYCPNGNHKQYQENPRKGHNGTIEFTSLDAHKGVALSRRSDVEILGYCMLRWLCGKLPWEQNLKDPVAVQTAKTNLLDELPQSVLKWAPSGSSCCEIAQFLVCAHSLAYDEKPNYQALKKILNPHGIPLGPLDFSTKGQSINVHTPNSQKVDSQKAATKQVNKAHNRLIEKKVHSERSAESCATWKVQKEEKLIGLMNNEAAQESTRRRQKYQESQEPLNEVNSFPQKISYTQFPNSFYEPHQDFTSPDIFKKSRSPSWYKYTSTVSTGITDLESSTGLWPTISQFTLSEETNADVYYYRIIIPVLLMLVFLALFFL
# UniProt Q9NRP7, sequence (whole entry, looked up): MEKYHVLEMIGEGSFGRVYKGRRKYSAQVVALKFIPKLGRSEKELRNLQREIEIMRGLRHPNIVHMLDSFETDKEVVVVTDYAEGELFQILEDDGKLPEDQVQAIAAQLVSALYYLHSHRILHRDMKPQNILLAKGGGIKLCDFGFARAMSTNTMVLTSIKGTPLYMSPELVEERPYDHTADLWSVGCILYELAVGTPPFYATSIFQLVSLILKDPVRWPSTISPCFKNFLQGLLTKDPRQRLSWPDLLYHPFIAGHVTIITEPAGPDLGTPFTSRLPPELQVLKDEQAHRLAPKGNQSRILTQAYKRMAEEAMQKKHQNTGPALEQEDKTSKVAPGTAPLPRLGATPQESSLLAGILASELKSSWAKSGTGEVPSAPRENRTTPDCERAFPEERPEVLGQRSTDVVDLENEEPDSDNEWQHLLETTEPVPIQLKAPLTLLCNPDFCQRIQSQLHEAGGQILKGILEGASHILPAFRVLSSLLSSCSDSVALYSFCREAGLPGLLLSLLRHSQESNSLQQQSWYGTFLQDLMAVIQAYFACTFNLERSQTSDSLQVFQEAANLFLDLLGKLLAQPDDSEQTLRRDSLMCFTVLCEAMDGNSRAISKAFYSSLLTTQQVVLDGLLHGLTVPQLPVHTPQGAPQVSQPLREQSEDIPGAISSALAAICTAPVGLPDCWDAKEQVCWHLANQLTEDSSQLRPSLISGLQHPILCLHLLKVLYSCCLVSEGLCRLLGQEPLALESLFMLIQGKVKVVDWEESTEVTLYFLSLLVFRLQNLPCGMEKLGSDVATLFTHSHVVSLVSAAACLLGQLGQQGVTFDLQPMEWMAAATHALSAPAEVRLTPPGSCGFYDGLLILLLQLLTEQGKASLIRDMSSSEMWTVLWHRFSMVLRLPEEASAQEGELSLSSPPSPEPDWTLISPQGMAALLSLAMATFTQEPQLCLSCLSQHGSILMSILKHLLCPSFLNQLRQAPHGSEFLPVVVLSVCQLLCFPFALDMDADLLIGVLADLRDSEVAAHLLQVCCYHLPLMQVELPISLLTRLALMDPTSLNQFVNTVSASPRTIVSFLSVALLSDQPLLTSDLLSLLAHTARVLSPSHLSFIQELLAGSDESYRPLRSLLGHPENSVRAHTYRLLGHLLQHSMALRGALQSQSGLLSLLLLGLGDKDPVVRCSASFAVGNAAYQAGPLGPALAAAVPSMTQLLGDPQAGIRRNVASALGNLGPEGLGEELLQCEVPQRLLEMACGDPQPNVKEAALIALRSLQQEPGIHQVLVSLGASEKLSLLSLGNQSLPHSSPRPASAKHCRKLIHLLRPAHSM
# UniProt Q9HBH9, sequence (whole entry, looked up): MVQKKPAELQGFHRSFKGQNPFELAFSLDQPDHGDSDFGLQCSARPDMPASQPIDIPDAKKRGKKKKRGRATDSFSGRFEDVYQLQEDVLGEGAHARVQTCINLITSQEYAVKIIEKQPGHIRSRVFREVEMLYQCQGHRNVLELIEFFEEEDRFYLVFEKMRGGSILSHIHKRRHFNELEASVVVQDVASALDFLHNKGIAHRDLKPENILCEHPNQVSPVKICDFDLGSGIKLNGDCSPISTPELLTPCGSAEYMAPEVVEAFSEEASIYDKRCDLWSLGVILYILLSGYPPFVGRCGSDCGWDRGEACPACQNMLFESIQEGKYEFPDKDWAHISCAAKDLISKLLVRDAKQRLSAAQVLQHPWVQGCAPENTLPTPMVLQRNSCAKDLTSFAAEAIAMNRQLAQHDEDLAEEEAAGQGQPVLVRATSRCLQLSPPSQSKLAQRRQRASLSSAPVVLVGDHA
# UniProt O14936, sequence (whole entry, looked up): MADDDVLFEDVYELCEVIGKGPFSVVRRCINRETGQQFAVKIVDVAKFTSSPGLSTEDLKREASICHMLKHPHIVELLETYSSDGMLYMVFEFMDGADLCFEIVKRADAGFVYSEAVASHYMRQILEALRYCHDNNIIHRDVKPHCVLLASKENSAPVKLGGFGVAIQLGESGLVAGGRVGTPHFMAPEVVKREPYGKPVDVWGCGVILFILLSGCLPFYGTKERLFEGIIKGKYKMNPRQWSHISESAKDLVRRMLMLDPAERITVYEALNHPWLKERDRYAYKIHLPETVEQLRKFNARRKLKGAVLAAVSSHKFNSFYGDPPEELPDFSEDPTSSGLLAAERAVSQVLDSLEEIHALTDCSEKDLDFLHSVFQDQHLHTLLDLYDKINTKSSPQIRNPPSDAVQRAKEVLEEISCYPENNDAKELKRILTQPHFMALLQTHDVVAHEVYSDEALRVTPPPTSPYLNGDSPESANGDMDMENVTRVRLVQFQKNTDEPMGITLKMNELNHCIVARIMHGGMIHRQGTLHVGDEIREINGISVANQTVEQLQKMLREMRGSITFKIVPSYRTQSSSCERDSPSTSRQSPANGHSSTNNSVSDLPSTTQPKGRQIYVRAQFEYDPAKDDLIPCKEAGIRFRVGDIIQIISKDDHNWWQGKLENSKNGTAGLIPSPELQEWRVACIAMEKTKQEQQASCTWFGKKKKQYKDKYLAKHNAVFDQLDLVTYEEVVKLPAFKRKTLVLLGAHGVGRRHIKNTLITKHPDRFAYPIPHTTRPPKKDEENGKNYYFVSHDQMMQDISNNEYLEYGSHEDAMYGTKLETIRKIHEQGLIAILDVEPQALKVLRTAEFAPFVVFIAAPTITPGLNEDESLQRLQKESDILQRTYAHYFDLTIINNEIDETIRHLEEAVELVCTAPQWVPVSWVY
# UniProt Q96SB4, sequence (whole entry, looked up): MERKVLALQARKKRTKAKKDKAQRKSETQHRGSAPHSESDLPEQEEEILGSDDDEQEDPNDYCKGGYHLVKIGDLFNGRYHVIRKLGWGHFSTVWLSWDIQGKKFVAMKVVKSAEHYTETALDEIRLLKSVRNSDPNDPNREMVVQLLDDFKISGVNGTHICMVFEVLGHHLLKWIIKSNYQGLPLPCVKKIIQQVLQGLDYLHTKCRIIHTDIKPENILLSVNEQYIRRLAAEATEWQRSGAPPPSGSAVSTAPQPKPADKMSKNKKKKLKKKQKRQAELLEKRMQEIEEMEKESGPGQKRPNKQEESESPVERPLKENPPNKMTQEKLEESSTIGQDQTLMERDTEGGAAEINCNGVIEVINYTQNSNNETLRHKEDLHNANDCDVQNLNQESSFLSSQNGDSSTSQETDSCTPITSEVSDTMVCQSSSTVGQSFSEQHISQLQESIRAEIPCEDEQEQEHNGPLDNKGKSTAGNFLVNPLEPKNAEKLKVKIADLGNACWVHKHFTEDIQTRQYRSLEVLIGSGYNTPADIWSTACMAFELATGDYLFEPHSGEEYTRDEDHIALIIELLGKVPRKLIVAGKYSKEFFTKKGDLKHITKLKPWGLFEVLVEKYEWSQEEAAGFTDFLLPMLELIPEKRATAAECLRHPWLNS
# UniProt P08631, sequence (whole entry, looked up): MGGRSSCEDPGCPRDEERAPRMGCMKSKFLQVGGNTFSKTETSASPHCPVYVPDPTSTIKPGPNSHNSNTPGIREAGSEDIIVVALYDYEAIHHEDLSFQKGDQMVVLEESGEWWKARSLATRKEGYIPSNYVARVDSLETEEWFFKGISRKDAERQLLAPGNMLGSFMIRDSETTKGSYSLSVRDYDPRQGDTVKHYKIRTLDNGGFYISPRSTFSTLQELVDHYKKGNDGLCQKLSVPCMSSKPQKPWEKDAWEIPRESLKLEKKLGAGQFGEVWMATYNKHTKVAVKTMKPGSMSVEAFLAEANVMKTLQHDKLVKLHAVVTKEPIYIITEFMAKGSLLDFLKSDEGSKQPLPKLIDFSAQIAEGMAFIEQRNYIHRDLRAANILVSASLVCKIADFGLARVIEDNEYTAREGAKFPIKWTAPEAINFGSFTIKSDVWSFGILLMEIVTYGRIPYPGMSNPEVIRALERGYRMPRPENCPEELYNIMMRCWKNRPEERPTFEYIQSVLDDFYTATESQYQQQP

# Block 1
# Organism: Plasmodium berghei
# Action: inhibitor
# Cells: Huh-7
# Strain: GFP-expressing, liver stage
# Concentration: 10 µM
# Time: 24 h
# Baseline: untreated control
Structure (SMILES),infection rate [%]
CC(C)(Sc1cc(C(C)(C)C)c(O)c(C(C)(C)C)c1)Sc1cc(C(C)(C)C)c(O)c(C(C)(C)C)c1,81.1
OCc1ccccc1O[C@@H]1O[C@H](CO)[C@@H](O)[C@H](O)[C@H]1O,104
Cc1nc2sccn2c(=O)c1CCN1CCC(=C(c2ccc(F)cc2)c2ccc(F)cc2)CC1,69.7
COc1cc(C(=O)NCc2ccc(OCCN(C)C)cc2)cc(OC)c1OC,92.5
CCCCCC(C)N (centres unmarked),102
COc1ccc2[nH]c([S+]([O-])Cc3ncc(C)c(OC)c3C)nc2c1 (centres unmarked),80.6
CCCCNC(=O)NS(=O)(=O)c1ccc(C)cc1,108
CN(C)CCCN1c2ccccc2Sc2ccccc21,92.3
O=C(O)CCC(=O)Nc1ccc(S(=O)(=O)Nc2nccs2)cc1,119
CC[C@H](C)C(=O)O[C@H]1C[C@H](O)C=C2C=C[C@H](C)[C@H](CC[C@@H](O)C[C@@H](O)CC(=O)O)[C@H]21,107
Cc1cc(C(C)(C)C)c(O)c(C)c1CC1=NCCN1,98
CC1(C)NC(=O)N(c2ccc([N+](=O)[O-])c(C(F)(F)F)c2)C1=O,102

# Block 2
# Target: Serine/threonine-protein kinase PLK1 (PLK1, Homo sapiens, UniProt P53350)
# UniProt P53350, sequence (whole entry, looked up): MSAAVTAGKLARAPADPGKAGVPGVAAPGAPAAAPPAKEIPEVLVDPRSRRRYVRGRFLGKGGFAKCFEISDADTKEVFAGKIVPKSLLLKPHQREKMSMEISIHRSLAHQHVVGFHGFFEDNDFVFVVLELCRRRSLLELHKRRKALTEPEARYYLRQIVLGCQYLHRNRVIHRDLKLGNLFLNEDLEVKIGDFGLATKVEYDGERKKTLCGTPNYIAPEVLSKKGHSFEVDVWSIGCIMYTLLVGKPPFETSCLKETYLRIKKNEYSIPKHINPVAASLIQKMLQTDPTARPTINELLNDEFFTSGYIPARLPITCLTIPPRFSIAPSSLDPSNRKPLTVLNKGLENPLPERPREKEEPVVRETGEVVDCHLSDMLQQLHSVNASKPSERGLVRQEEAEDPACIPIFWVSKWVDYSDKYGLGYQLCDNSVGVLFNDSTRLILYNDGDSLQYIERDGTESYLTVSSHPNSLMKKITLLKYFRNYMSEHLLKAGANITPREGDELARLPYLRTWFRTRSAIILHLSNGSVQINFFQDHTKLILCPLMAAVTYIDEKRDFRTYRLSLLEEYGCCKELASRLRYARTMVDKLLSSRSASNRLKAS
# Observed: enzyme activity
# Action: inhibitor
# Concentration: 0.5 µM
# Baseline: control
SMILES,remaining activity [%]
NC(=O)c1cccc(-c2cc(Nc3ccc(OC(F)(F)F)cc3)ncn2)c1,97.7
CC(C)n1cnc2c(Nc3cccc(Cl)c3)nc(NCCO)nc21,44.1
Clc1ccc(Nc2nnc(Cc3ccncc3)c3ccccc23)cc1,95.9
O=Nc1c(-c2c(O)[nH]c3ccccc23)[nH]c2ccccc12,100
N#CC(c1ccnc(NCCc2cccnc2)n1)c1nc2ccccc2s1 (centres unmarked),91.4
COc1cc2c(N3CCN(C(=O)Nc4ccc(OC(C)C)cc4)CC3)ncnc2cc1OCCCN1CCCCC1,101
O=C(O)/C=C/c1cc(Br)c(Br)c(Br)c1Br,68.7
COc1cc2c(Nc3ccc(Br)cc3F)ncnc2cc1OCC1CCN(C)CC1,98.5
N#C/C(=C(/N)SC1C=CC=CC1)c1cccc(C(O)c2ccncc2)c1 (centres unmarked),96.2
O=C1c2ccccc2-c2nc3nnnn3nc21,28.6
O=C1NC(=O)/C(=C/c2ccc3c(c2)OC(F)(F)O3)S1,92.9
Nc1nc(Nc2ccc(S(N)(=O)=O)cc2)nn1C(=S)Nc1c(F)cccc1F,92.1
O=c1c(-c2ccc(F)cc2)c(-c2ccncc2)[nH]n1-c1ccc(Cl)cc1,98.3
C[C@@H](N)[C@H]1CC[C@H](C(=O)Nc2ccncc2)CC1,93.9
c1cc(-c2cnn3cc(-c4ccc(OCCN5CCCCC5)cc4)cnc23)ccn1,107
CCCCc1c(-c2ccc(O)cc2)[nH]c2nccnc12,96.6
CCN(CC)CCCCN1c2ccccc2Oc2ccc(Cl)cc21,109
CC(C)N(CCC(=O)c1ccc2ccccc2c1)Cc1ccccc1,97.8
CNc1cc2c(Nc3cccc(Br)c3)ncnc2cn1,93.5
NC(=O)c1ccc(-c2nc(-c3ccc4c(c3)OCCO4)c(-c3ccccn3)[nH]2)cc1,95.6
CC(C)(C)c1nc2c3cc[nH]c(=O)c3c3cc(F)ccc3c2[nH]1,10.5
FC(F)(F)c1ccc(/C=C/c2nc(COc3ccc(CCCCn4ccnn4)cc3)co2)cc1,98.3
O=C(c1ccccc1)c1ccc(N2CCOCC2)cc1O,104

# Block 3
# Host: human
# Sample: microsomes or S9
# Concentration: 2 µM
# Time: 0.5 h
SMILES,remaining compound [%]
CCOc1cc(=O)n2c(c1C(=O)Nc1ccc(C)cc1Cl)CCCC2,71.6
Cc1nn(C)c(C)c1-c1cc(C(=O)NCCc2c[nH]c3ccccc23)[nH]n1,73.2
NC1=NC(c2ccc(Cl)cc2)N2C(=N1)N=C(O)c1ccccc12 (centres unmarked),95.1
NC(N)=Nc1nc(-c2cc3ccccc3o2)cs1,24.9
O=C(Cc1cnc[nH]c1=O)N[C@@H]1CCCC[C@H]1c1ccccc1,> 100
O=C(O)c1cn2c(n1)C(c1ccccc1)N(C(=O)c1ccccc1)CC2 (centres unmarked),55.7
Cc1sc2c(C3CCN(C(=O)C(C)NC4CCS(=O)(=O)C4)CC3)nc(C)n2c1C (centres unmarked),51.3
Cc1ccc(C)c(NC(=O)N2CCc3[nH]cnc3C2)c1,96
CCCNC(=O)c1cn(-c2cc(-c3nc(C(C)(C)C)no3)ccn2)cn1,66.7
Cc1ccc2c(c1C)NC(=O)CC2c1ccc(O)cc1 (centres unmarked),70.7
COc1cc(Nc2ncnc3c2cnn3-c2ccc(C)cc2C)cc(OC)c1OC,> 100
Cc1nn(-c2ncnc3[nH]cnc23)c2c1C(c1cccc(OC(C)C)c1)CC(=O)N2 (centres unmarked),1.38
Cc1cc(C)c2c(n1)nn1c(-n3ccnc3)cc(C)nc21,41.4
Cc1ncoc1C(=O)N1C2CCC1Cn1c(nnc1-c1ccccc1)C2 (centres unmarked),88.1
O[C@H]1Cc2ccccc2[C@H]1Nc1nc(-c2ccccn2)nc2c1CCNC2,> 100

# Block 4
# SMILES: C[C@@H](c1cccc(C#N)c1)n1cc(Cl)cc(C(N)=O)c1=N
# Method: competition with immobilised ligand
# Concentration: 1 µM
target,observed,remaining binding [%]
"SRPK1 (Homo sapiens, UniProt Q96SB4)",cell-free assay,100
"Ribosomal protein S6 kinase alpha-2, N-terminal kinase domain (RPS6KA2, Homo sapiens, UniProt Q15349)",cell-free assay,93
"MKNK2 (Homo sapiens, UniProt Q9HBH9)",cell-free assay,100
"CASK (Homo sapiens, UniProt O14936)",cell-free assay,79
"MET (Homo sapiens, UniProt P08581, Y1235D)",cell-free assay,100
"Tyrosine-protein kinase ABL1, phosphorylated (ABL1, Homo sapiens, UniProt P00519, Y253F)",cell-free assay,85
"CDKL2 (Homo sapiens, UniProt Q92772)",binding,100
"HCK (Homo sapiens, UniProt P08631)",cell-free assay,91
"EPHB1 (Homo sapiens, UniProt P54762)",cell-free assay,94
"TGFBR1 (Homo sapiens, UniProt P36897)",cell-free assay,81
"MAPK14 (Homo sapiens, UniProt Q16539)",cell-free assay,100
"VRK2 (Homo sapiens, UniProt Q86Y07)",cell-free assay,85
"WNK4 (Homo sapiens, UniProt Q96J92)",cell-free assay,98
"STK36 (Homo sapiens, UniProt Q9NRP7)",cell-free assay,94
"COQ8B (Homo sapiens, UniProt Q96D53)",cell-free assay,88

# Excerpt of the above (block 2):
SMILES,remaining activity [%]
c1cc(-c2cnn3cc(-c4ccc(OCCN5CCCCC5)cc4)cnc23)ccn1,107
CCCCc1c(-c2ccc(O)cc2)[nH]c2nccnc12,96.6
CCN(CC)CCCCN1c2ccccc2Oc2ccc(Cl)cc21,109
CC(C)N(CCC(=O)c1ccc2ccccc2c1)Cc1ccccc1,97.8
CNc1cc2c(Nc3cccc(Br)c3)ncnc2cn1,93.5
NC(=O)c1ccc(-c2nc(-c3ccc4c(c3)OCCO4)c(-c3ccccn3)[nH]2)cc1,95.6
CC(C)(C)c1nc2c3cc[nH]c(=O)c3c3cc(F)ccc3c2[nH]1,10.5
